Measured values of several laboratories.
Numbers after ± are the reported error. Converted amounts (≈) assume the structure as drawn.

With `CNS(=O)(=O)Nc1nccc(Cc2c(C)c3ccc(Oc4ncccc4F)cc3oc2=O)c1F` the IC50 was greater than 1 µM (AMO1; cell viability; 7 days).
`CC[n+]1cccc2cc(/C=N/NC(=O)c3ccc4ccc(C(=O)N/N=C/c5ccc6c(ccc[n+]6CC)c5)nc4n3)ccc21` gave a ΔTm of 21.2 ± 1 °C (telomeric G4 DNA hybrid-2; FRET melting; 1 µM, DNA 0.2 µM).
With `CC(C)(C)c1cc(-c2ccc3cccnc3n2)nc(-c2ccc3cccnc3n2)c1.[Cl-].[Cl-].[Ru+2].c1ccc2cc3nc4c5cccnc5c5ncccc5c4nc3cc2c1` the EC50 was 4.85 µM (B16-F10; resazurin; added: light 633 nm, 20 mW, 100 J/cm2).
`Cc1ncsc1-c1ccc(C(C)NC(=O)C2CC(O)CN2C(=O)C(NC(=O)CCCCCCCCCCN2CCCC(Nc3ncc(Cl)c(Nc4ccccc4S(=O)(=O)C(C)C)n3)C2)C(C)(C)C)cc1` (stereo not shown): “log2 fold change” -1.1 (22Rv1; RNA-seq, measured: LYSMD1 mRNA; concentration not given; baseline: DMSO).
`Nc1ncc(-c2cc(-c3cnn(CC(F)(F)F)c3)ncc2F)nc1C(=O)NC1CNCC(F)C1` (stereo not shown) gave a remaining binding of 47% (MAP3K15; KINOMEscan; 1 µM; baseline: DMSO control).
`CN1CCCNC(=O)c2cccc(c2)C(=O)NCCCN(C)CCCNc2cccc3c2C(=O)c2cccc(c2C3=O)NCCC1` — result for “log2 fold change”: -0.375 (SAS; RNA-Seq, measured: NOP56 mRNA; 1 µM, 6 h; baseline: untreated cells).
For `CC(=O)[O-].O.O.O.O.[Co+2].[O-]c1ccc(Br)cc1C=NCCN1CCOCC1`, the inhibition was 47.8% (DPPH radical scavenging; 120 µM).
`COC1CN([C@H]2CC[C@H]([C@@]3(C)Oc4c(Cl)cc(C(=O)NCc5c(SC)cc(C)[nH]c5=O)c(C)c4O3)CC2)C1` — result for “log2 fold change”: 1.4 (RNA-seq, measured: HEMGN; human, whole blood; dose not given, 24 h; baseline: pretreatment baseline).
`O=C(N/N=C/c1ccc(C[n+]2ccccc2)cc1)c1cc(C(=O)N/N=C/c2ccc(C[n+]3ccccc3)cc2)ncn1` gave a ΔTm of 2 ± 0.6 °C (telomeric G4 DNA hybrid-2; FRET melting; 1 µM, DNA 0.2 µM, added: duplex DNA competitor 10 µM).
`C=CC(=O)Nc1cccc(Cn2ncc3cnc(Nc4cnn(CCOC)c4)nc32)c1` — result for “percent of control”: 100% (MARK3 human; binding, KINOMEscan; 100 nM; lower = stronger binding).
`C[n+]1ccc(/C=N/NC(=O)c2cncc(C(=O)N/N=C/c3cc[n+](C)c4ccccc34)n2)c2ccccc21` gave a ΔTm of 23.9 ± 0.2 °C (telomeric G4 DNA hybrid-2; FRET melting; 1 µM, DNA 0.2 µM).
`N=C(N)NCCC[C@@H]1NC(=O)[C@H](CCCNC(=N)N)NC(=O)[C@@H](C(c2ccccc2)c2ccccc2)NC(=O)[C@H](Cc2c[nH]c3ccccc23)NC(=O)[C@@H](C(c2ccccc2)c2ccccc2)NC(=O)[C@@H](CCCNC(=N)N)NC(=O)[C@@H](CCCNC(=N)N)NC1=O` has an MIC of greater than 64 µg/mL (Aspergillus fumigatus; fungal growth).
`C[n+]1ccc(/C=N/NC(=O)c2cc(C(=O)N/N=C/c3cc[n+](C)c4ccccc34)ncn2)c2ccccc21` has a ΔTm of 4.6 ± 0.4 °C (telomeric G4 DNA hybrid-2; FRET melting; 1 µM, DNA 0.2 µM).
`C=CC(=O)N1[C@@H](c2ccc3c(c2)OCO3)c2[nH]c3ccccc3c2C[C@H]1C(=O)N1CCN(C)CC1`: “log2 fold change” -0.14 (CCNE1 WT-3xFLAG:CDK2 complex; co-IP TMT proteomics, measured: PRC1; HEK-293T; 20 µM, 6 h; baseline: DMSO).
The ΔTm of `C[n+]1ccc(/C=N/NC(=O)N/N=C/c2cc[n+](C)c3ccccc23)c2ccccc21` is reported as 2.4 ± 0.5 °C (telomeric G4 DNA hybrid-2; FRET melting; 1 µM, DNA 0.2 µM, added: duplex DNA competitor 10 µM).
`C=C(NC(=O)c1csc(-c2nc3c(cc2O)-c2nc(cs2)C(=O)NC(C(C)O)C(=O)NC(=C(C)OC)c2nc(cs2)C(=O)NC2c4nc(cs4)C(=O)NC(COC(=O)c4c5c6c(cccc6n4O)COC(=O)C(OC4CC(C)(O)C(N(C)C)C(C)O4)C2OC5)c2nc-3cs2)n1)C(N)=O` (stereo not shown) has an MIC90 of 0.0312 µg/mL (≈ 0.0217 µM) (Staphylococcus epidermidis; broth microdilution; methicillin-resistant isolates).
